Assay results from different studies.
Every numbered part comes from another study and shows a few of its results, in no order.

Set 1
Target: Interferon regulatory factor 3, full length, phosphomimetic (IRF3, Homo sapiens, UniProt Q14653, residues 1-427, S386D/S396D/S398D/S402D/T404D/S405D)
Method: protein-binding microarray
Form: double-stranded DNA, one strand shown
Matrix: in vitro
Concentration: 2540 nM top
Setting: 60-bp whole probe
Added: salmon DNA 0.4 mg/ml
Reference: random background probes
Direction: higher = stronger binding
Target sequence (chain): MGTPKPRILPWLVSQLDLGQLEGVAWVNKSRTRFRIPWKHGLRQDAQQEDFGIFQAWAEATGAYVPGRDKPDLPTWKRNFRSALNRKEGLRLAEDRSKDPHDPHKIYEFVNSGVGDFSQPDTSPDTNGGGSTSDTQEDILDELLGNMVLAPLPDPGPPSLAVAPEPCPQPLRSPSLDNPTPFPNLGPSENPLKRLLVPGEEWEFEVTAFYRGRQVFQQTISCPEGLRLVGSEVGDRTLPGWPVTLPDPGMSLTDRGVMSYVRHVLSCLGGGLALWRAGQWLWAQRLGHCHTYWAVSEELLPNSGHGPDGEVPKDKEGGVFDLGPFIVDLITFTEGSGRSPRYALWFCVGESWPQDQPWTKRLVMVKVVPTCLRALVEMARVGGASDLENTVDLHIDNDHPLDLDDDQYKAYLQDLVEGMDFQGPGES
For `GCCTAGCACCACGGACTGGGTCTCGGGACGTGCTAGGTCTTGATTCGCTTGACGCTGCTG`, “fitted relative affinity” read -0.668 z-score.
`GCCTAGCACTTAGGTATCGGTATCAGTTAGTGCTAGGTCTTGATTCGCTTGACGCTGCTG`: “fitted relative affinity” 4.24 z-score.
`GCCTAGCACTTAGAGCTCAGTATCGATTAGTGCTAGGTCTTGATTCGCTTGACGCTGCTG`: “fitted relative affinity” 0.666 z-score.
`GCCTAGCACTTAGGAGTCAACTCTCTAATTGTGCTAGTCTTGATTCGCTTGACGCTGCTG`: “fitted relative affinity” -0.262 z-score.

Set 2
Target: Phosphate system positive regulatory protein PHO4, full length, GST-tagged (PHO4, Saccharomyces cerevisiae, UniProt P07270, residues 1-312)
Method: competition protein-binding microarray
Form: double-stranded DNA, one strand shown
Matrix: in vitro
Concentration: 2 µM
Setting: whole 60-bp probe, lowest competitor level
Added: Cbf1 competitor, 0.05 µM
Direction: higher = stronger binding
Construct (chain): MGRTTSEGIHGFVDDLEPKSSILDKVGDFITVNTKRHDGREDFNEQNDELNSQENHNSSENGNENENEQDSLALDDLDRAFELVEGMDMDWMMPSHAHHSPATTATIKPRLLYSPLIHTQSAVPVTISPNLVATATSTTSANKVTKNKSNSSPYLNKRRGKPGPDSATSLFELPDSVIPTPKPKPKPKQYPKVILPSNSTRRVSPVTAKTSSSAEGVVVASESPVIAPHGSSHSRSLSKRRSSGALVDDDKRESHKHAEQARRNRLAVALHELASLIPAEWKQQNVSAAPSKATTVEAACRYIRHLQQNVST
`AAAGCGGTAATTTGGACAGTGGGTGCAGATATCTATGTCTTGATTCGCTTGACGCTGCTG` has a fluorescence intensity of 4030 a.u.
`ATTCCTCGGAGGTAACATGTGCTGCAAAGGCCATGAGTCTTGATTCGCTTGACGCTGCTG` gave a fluorescence intensity of 11200 a.u.
For `GATGTTGTCTGCTTTGTCGTGCTAACCAAACAGCAAGTCTTGATTCGCTTGACGCTGCTG`, the fluorescence intensity was 5580 a.u.
`CGTCCTAGTGATTGGCTGGTGGGTGCCATGAGGAAGGTCTTGATTCGCTTGACGCTGCTG` gave a fluorescence intensity of 6760 a.u.

Set 3
Target: Histone acetyltransferase KAT6A, winged helix 1, GST fusion (KAT6A, Homo sapiens, UniProt Q92794, residues 1-85)
Method: protein binding microarray
Form: double-stranded DNA, one strand shown
Matrix: in vitro
Concentration: not given
Setting: 8-mer, flanks averaged, mean of 2 arrays, mostly near background
Reference: not given
Direction: higher = stronger binding
Target sequence (chain): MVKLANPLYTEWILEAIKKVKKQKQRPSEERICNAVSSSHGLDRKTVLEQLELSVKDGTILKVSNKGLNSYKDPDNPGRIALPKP
`AAGTCTCA` gave an E-score of -0.243.
With `GACTGGAA` the E-score was -0.238.
The E-score of `CGCGCGAC` is reported as 0.432.

Other studies, line by line
For `PhoQ, residues 284 288 289 292 302 303 TVTVVA`, the fold induction was 7.58 (PhoP, residues 12 14 15 18 19 VHSCL (Escherichia coli, UniProt P23836); Sort-seq, item: YFP reporter; E. coli; PhoQ-PhoP variant library, added: 10 µM Mg2+; reference: high Mg2+ state, higher = stronger signaling).

Repeated from above (set 3):
The E-score of `CGCGCGAC` is reported as 0.432.
